{"data": "Measurements pooled from the literature", "note": "A part holds a random share of what one study measured."}
{"data": "Study 1", "target": "RNA binding protein fox-1 homolog 2, RRM domain, GST-SBP tag (RBFOX2, Homo sapiens, UniProt O43251-10, residues 100-194)", "technique": "RNA Bind-n-Seq", "form": "RNA", "medium": "in vitro", "concentration": "365 nM", "notes": "natural RNA segment, single round, ends assumed", "baseline": "no-protein control", "reading": "higher = stronger binding", "shared flanks, not repeated": "GGGAGUUCUACAGUCCGACGAUC … UGGAAUUCUCGGGUGCCAA", "Construct (chain)": "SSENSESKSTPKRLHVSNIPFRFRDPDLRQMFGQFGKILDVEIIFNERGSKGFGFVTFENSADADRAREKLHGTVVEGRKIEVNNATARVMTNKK"}
{"Sequence": "AAGUAUGCUUUCUCCUGAAAACUUUAGCAUUGGGUGCAAAUAUUCAGUAUGGUUCUCGGAGUCCAAAGGGUUUUAAGCCAGGGCACAACCAGAAAAGUGGCUCUCUUUGG", "RBNS enrichment (R)": 0.738}
{"Sequence": "CAAAAAAAAAAAAACCCAUUUGCAGAGGCAGUUUUGCCAACACAAGGGCUCUUUCAAGCCGACUUUCACAAAGAGAGCCGGACUUGUUAGUUGGCUUCUGUCUCUUUAGA", "RBNS enrichment (R)": 0.577}
{"Sequence": "AAGAAAAAGUGACCAUCUUACCUGUCAUUCAGAAUGCAAGCUAACAUCAUCCCUGUAAGCAGAGAGAACCCUAGUCACUAAAGGUGGGAGCCCUUUACCUCUCAUGUUCC", "RBNS enrichment (R)": 0.476}
{"Sequence": "GUAUUUGUCUCCCUCACUAGAUUAUACGCUCCUUGUGGGCAGGGACUGUGUCUUUUUUCAUCUUUGUAUCUUUCAUGCACCUAGCAUAGUGCUUUGCACAUAGUAGUCAC", "RBNS enrichment (R)": 1.43}
{"Sequence": "GGGGCCCAGCUUCCAAUAGUGUCAGAAGCAACUUGUGGCUUUGCCUUGGUUGUGAGAUGGGUACAUUCCAAAGGAGCAGCCUGGGGGAGGGGGCAGGCUCAGCCAGCCCU", "RBNS enrichment (R)": 0.322}
{"Sequence": "CAUGACAUUCCAAGUUGACAUUUUUUUUUCAUUUUAAUUAAAAUUUGAAAUUCUGAACACCGUCAGCACCCUCUCUUCCCUAUCAUGGGUCAUCUGACCCCUGUCCGUCU", "RBNS enrichment (R)": 0.371}
{"Sequence": "GUUCAAGGGAAUAGAUGAGUAAGCAACGUUUCAAAUUUGGGAUGAAAAGACUGCCAAACUAUUGGCUGACCAAGGUUUUUAAAUUCAGAAGAGCAAUUCUAAAUCUAAAG", "RBNS enrichment (R)": 0.787}
{"Sequence": "UGAACAGAAGGGAUUUGAGAAGAGGAAAGGAAGAAGAAAUGAAUGGCUCAGGCCUUGGACAGUCCAACAUUAAAGUCAACAUGCUGAUCUCUCCAUUCCUGGUUCAGGGU", "RBNS enrichment (R)": 0.583}
{"data": "Study 2", "target": "RING finger protein unkempt homolog, zinc fingers 1-6, GST-SBP tag (UNK, Homo sapiens, UniProt Q9C0B0, residues 30-357)", "technique": "RNA Bind-n-Seq", "form": "RNA", "medium": "in vitro", "concentration": "not given", "notes": "RNA with constant flanks, human and mouse sites, ends assumed", "baseline": "input RNA pool", "reading": "higher = stronger binding", "shared flanks, not repeated": "GGGAGUUCUACAGUCCGACGAUC … CAACAGAGGAUUGAGCAUCA", "Target sequence (chain)": "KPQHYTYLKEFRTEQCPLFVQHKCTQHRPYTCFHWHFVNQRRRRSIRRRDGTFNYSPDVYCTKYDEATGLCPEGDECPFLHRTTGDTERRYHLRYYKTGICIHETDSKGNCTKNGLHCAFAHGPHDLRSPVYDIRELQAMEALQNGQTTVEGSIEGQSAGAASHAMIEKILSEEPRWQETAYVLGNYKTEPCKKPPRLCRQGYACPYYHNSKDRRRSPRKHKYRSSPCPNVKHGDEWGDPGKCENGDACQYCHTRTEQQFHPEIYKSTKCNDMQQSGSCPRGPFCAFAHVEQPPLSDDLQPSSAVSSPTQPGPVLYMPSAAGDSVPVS"}
{"Sequence": "GCGUCACCAAGGUGUCCUGACCGCCAGAAUGUCCUGACCACCAAGGUGUCCUAACCUACCGGCCCCUCUGCUGGAUACCCCUCUUGGACCUGUAGCCACCUGCACCAGGAGCUGGACCUG", "bound/input enrichment": "0.0678 ratio"}
{"Sequence": "GGCAUCGCGGGCUGUGGAACCCUACUAAUAUUGGAUCCAGAUGAAGCUGGGCUAAGGCUUUUUAGAAGCUUUGACUGGAAUGAUGGUUUGUUUGAUGUGACUUGGAGUGAGAACAACGAA", "bound/input enrichment": "0.11 ratio"}
{"Sequence": "UUGGAUUCCCCUGAUCAGUUGUCCGGAUUGACAAUGAUUACACACCUCACUGCUACUUCUGACUAUCACAAGGUGGUUGUCAAUUACUUGGCUGGGUUUUUCUACUUACUGAAUUCAGGC", "bound/input enrichment": "0.121 ratio"}
{"Sequence": "UCAGAAGGGCAGCUCGGCUUAGGCCAUACCAACCAUGUUCGAGAACCAACCCUGGUAACAGGUCUGCAAGGGAAAAAUGUUCGGCAGAUCUCGGCUGGCCGCUGCCACAGUGCUGCAUGG", "bound/input enrichment": "0.093 ratio"}
{"Sequence": "ACAUAUCUCAUUGAGCCAGAAGAAAAUGACACUACUCAAGAGGAUUUCCAUUUUCAUUCAGUUUACAAAUCCAGACUGUUUGAAUUUUCCUUGGAUGAUCUUCCAUCUGAAUUUCAGCAA", "bound/input enrichment": "0.0639 ratio"}
{"Sequence": "GGAGUUAAAGCUGUGUUUAUGAAUAAACAUGACUGGUAUGAAGAAUAUCCAACCACACCUAGCUCUUUUGUUUUAAAUGGCUUUAUGUAUUCUUUAAUUGGGCUGUAUGACUUAAAAGAA", "bound/input enrichment": "0.988 ratio"}
{"Sequence": "GAACUGGGUGACCACGUGACCAACUUACGCAAGAUGGGUGCCCCUGAAGCUGGCAUGGCAGAAUAUCUCUUUGACAAGCACACCCUGGGACACGGUGAUGAGAGCUAAGCUGACUUCCCC", "bound/input enrichment": "0.0684 ratio"}
{"Sequence": "AUAGAAGGCCCUACACCAGUUUCAGCACUACUACACUCAAGUACAAUAGUAGUUGCAGGAAUUUUCCUACUGGUCCGAUUCCACCCCCUCACGACUAAUAAUAACUUUAUUUUAACAACU", "bound/input enrichment": "2.8 ratio"}
{"data": "Study 3", "target": "Sal-like protein 4, full length isoform B (SALL4, Homo sapiens, UniProt Q9UJQ4-2, residues 1-616)", "technique": "universal PBM", "form": "double-stranded DNA, one strand shown", "medium": "in vitro", "concentration": "not given", "notes": "8-mer, flanks averaged, mean of replicates", "reading": "higher = stronger binding", "Target sequence (chain)": "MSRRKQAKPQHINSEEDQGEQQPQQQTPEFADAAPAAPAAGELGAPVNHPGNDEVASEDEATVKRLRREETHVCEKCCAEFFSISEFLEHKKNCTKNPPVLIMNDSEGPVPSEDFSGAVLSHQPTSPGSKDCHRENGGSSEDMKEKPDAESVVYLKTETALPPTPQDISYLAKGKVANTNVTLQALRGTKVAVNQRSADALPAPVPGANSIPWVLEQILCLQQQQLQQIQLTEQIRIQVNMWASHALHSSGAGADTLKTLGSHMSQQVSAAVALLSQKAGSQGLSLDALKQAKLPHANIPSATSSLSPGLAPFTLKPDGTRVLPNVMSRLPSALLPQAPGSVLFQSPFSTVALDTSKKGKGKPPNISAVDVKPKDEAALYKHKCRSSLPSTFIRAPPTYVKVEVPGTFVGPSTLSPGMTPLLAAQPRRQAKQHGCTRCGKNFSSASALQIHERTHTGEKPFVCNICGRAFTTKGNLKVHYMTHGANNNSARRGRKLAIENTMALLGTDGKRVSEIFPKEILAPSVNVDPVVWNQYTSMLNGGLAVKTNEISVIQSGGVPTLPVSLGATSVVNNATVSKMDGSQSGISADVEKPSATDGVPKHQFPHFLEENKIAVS"}
{"Sequence": "CCAGACGC", "E-score": -0.261}
{"Sequence": "CTACGGTC", "E-score": -0.298}
{"Sequence": "ACCGACGG", "E-score": -0.297}
{"Sequence": "CCTAACCA", "E-score": -0.0126}
{"Sequence": "CGCGCGTC", "E-score": -0.162}
{"Sequence": "GTTTTGAA", "E-score": 0.126}
{"Sequence": "AATCCTTC", "E-score": 0.0781}
{"Sequence": "AGCAATGG", "E-score": -0.0601}
{"Sequence": "GCGCATAC", "E-score": -0.0252}
{"Sequence": "AGTGAGCC", "E-score": -0.157}
{"Sequence": "ACTTCACA", "E-score": 0.0713}
{"Sequence": "CCGGAATC", "E-score": -0.21}
{"Sequence": "CACCGGGA", "E-score": -0.308}
{"Sequence": "AGACTACA", "E-score": 0.0619}
{"Sequence": "ATGTCGAG", "E-score": -0.0545}
{"Sequence": "ATAGCCTA", "E-score": 0.118}
{"Sequence": "TCACCCGA", "E-score": -0.134}
{"Sequence": "CAATCCTG", "E-score": 0.0991}
{"Sequence": "CGCCCGCC", "E-score": -0.331}
{"Sequence": "CTAGCTCC", "E-score": -0.213}
{"data": "Study 4", "target": "Phosphate system positive regulatory protein PHO4, full length, GST-tagged (PHO4, Saccharomyces cerevisiae, UniProt P07270, residues 1-312)", "technique": "competition protein-binding microarray", "form": "double-stranded DNA, one strand shown", "medium": "in vitro", "concentration": "2 µM", "notes": "whole 60-bp probe, lowest competitor level", "together with": "Cbf1 competitor, 0.05 µM", "reading": "higher = stronger binding", "shared flanks, not repeated": "… GTCTTGATTCGCTTGACGCTGCTG", "Target sequence (chain)": "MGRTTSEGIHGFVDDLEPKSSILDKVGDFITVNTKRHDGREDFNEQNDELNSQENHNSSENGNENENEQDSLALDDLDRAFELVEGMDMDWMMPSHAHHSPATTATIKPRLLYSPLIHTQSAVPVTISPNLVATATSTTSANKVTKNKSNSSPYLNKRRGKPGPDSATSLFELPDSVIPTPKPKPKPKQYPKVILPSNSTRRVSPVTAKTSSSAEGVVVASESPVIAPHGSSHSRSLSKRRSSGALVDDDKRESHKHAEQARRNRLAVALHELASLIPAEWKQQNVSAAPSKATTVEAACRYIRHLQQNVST"}
{"Sequence": "ACCAGAAAAAAAACACACGTGATGGCCACCAGGAGC", "fluorescence intensity [a.u.]": 15800}
{"Sequence": "CGTCCTAGTGATTGGGCAGTGGGTGCCATGAGGAAG", "fluorescence intensity [a.u.]": 7590}
{"Sequence": "CACTTCGGTTAGCATCACTTTTAACCAATCTCTTTC", "fluorescence intensity [a.u.]": 3610}
{"Sequence": "TGCGCAACAACTTGTCACTGCACTTTATGTCTAGAA", "fluorescence intensity [a.u.]": 3580}
{"Sequence": "AAATTACTAAGTTGCTTTGTGGGTGACGCCGTATGA", "fluorescence intensity [a.u.]": 3790}
{"Sequence": "AAAGCGGTAATTTTTCACGTGGCATCACATATCTAT", "fluorescence intensity [a.u.]": 14000}
{"Sequence": "CTTCTGTAAATTTGTCCGGTGGGTGGACGCGCCCCG", "fluorescence intensity [a.u.]": 3950}
{"Sequence": "CTAACGAAGGTTTGTGCAGTGGGTGACAAGCCAAGT", "fluorescence intensity [a.u.]": 5010}
{"Sequence": "TTATTTTGGGCCCTCGTTCAAGGGCCATCTCACCCT", "fluorescence intensity [a.u.]": 3980}
{"Sequence": "AAATTACTAAGTTGTGTAGTGGGTGACGCCGTATGA", "fluorescence intensity [a.u.]": 4130}
{"Sequence": "CTTGGTTACAGGTATCATGTGTGAAACTGTTTGCGG", "fluorescence intensity [a.u.]": 6530}
{"Sequence": "CTTCTGTAAATTTTTCACGTGGATTGACGCGCCCCG", "fluorescence intensity [a.u.]": 11500}
{"Sequence": "AAATTACTAAGTTGCTCAGTGGGTGACGCCGTATGA", "fluorescence intensity [a.u.]": 3490}
{"Sequence": "GTCTTGTCTCATTGTTATGTGGGTGTCCCCACTTCA", "fluorescence intensity [a.u.]": 5240}
{"Sequence": "TCTGTATGGGTTTGTCATGCTGCTCTGGTCCCTTAT", "fluorescence intensity [a.u.]": 5200}
{"Sequence": "CTTTCCCGATCTTGTCCCGTGGGTGTAGCACATTTG", "fluorescence intensity [a.u.]": 9200}
{"Sequence": "CGAAGTTATTTGTCTAGCATGATAAGGTACAATGCC", "fluorescence intensity [a.u.]": 4100}
{"note": "Some of these lines once more (study 3):"}
{"Sequence": "ATGTCGAG", "E-score": -0.0545}
{"Sequence": "CAATCCTG", "E-score": 0.0991}
{"Sequence": "GTTTTGAA", "E-score": 0.126}
{"Sequence": "CCGGAATC", "E-score": -0.21}
{"Sequence": "AGCAATGG", "E-score": -0.0601}
{"Sequence": "AGACTACA", "E-score": 0.0619}
{"Sequence": "AGTGAGCC", "E-score": -0.157}
